Published values of several laboratories.
Compare with care: the assays were run in different laboratories.

| Compound | tested on | assay | test system | setting | how to read | measurement | value |
| --- | --- | --- | --- | --- | --- | --- | --- |
| CC(CCN[C@H](CN[C@H](CO)CN1CCC[C@H]1CN[C@H](CN)c1ccccc1)c1ccccc1)c1ccccc1 (stereo partly shown) | Acinetobacter baumannii | bacterial growth |  | 8 µM, fold shift of IC90, added: amikacin |  | potentiation of amikacin | 1.7 fold |
| Cc1cc(N)nc(-c2ccc(CNCCc3cccc(F)c3)cc2)c1 | mouse embryonic fibroblasts | cytotoxicity, CellTiter-Glo |  | 72 h |  | IC50 | 11900 nM |
| COCCCn1nc(-c2ccc(CC(=O)Nc3cccc(F)c3)cc2)c2c(N)ncnc21 | A549 | cell viability |  |  |  | EC50 | > 20000 nM |
| C[C@H](CS)C(=O)N[C@@H](Cc1c[nH]c2ccccc12)C(=O)O | Escherichia coli |  | VIM-1 producing | 25 µM, added: meropenem |  | MIC of meropenem | 16 µg/mL |
| CC(=O)OC1CC[C@H]2C3=C(CC[C@]12C)[C@]1(C)c2c(coc2C3=O)[C@@H](OC(C)=O)[C@@H]2O[C@@H]21 (stereo partly shown) | MDA-MB-231 | DCFH-DA fluorescence |  | concentration not given, unit not given | relative to: untreated | ROS level | 1.24 |
| NC[C@@H](NC[C@@H]1CCCN1C[C@@H](CO)NC[C@@H](NCCC1CC2CCC1C2)c1ccccc1)c1ccccc1 (stereo partly shown) | Escherichia coli | bacterial growth |  | 24 µM, fold shift of IC90, added: amikacin |  | potentiation of amikacin | 2.1 fold |
| CC(C)(C)c1ccc(C(=O)Nc2cc(Cl)c(F)cc2C(=O)O)cc1 | IMR-90 | cytotoxicity, CellTiter-Blue |  | 44 to 46 h |  | EC50 | > 25000 nM |
| CN1CC[C@]23c4c5ccc(O)c4O[C@H]2c2ncc(-c4ccc(Cl)cc4)cc2C[C@@]3(OCCCc2ccccc2)[C@H]1C5 |  | tolerance | CD-1 mouse, chemotherapy-induced neuropathy | sc, 1 mg/kg twice daily, 4 days |  | days to zero efficacy | 2.3 days |
| [O-][S+](CCCCOc1ccc(C(=C2C3CC4CC(C3)CC2C4)c2ccc(O)cc2)cc1)CCCC(F)(F)C(F)(F)F (stereo not shown) | MCF7 inducible wild-type ERα | cell proliferation, inhibitor, MTT |  | 5 days |  | IC50 | 4.4 nM |
| O=C(C=Cc1ccc(C(F)(F)F)cc1)Nc1ccc(Oc2ccccc2)c(S(=O)(=O)O)c1 | HEK293 AP-1-luc | AP-1 reporter gene, inhibitor |  | 24 h, added: 20% serum |  | IC50 | 640 nM |
| CC(C)(C)c1ccc(C(=O)Nc2cc(Cl)c(Cl)cc2C(=O)O)cc1 | IMR-90 | cytotoxicity, CellTiter-Blue |  | 44 to 46 h |  | EC50 | > 25000 nM |
| Cc1ccc(N(C)c2cc(N(C)C3CC3)n3ncc(C#N)c3n2)cc1NC(=O)C1CC1 | NCI60 cancer cell lines | cell growth |  | 10 µM |  | inhibition | > 58 %I |
| CCc1nc(N)nc(N)c1C#CC(C)c1cc2c(c(-c3ccc(C(=O)O)cc3)c1)OCO2 (stereo not shown) | MCF-10A | cytotoxicity, Alamar Blue |  | four hours |  | IC50 | > 200 µg/mL |
| [O-][S+](CCCCOc1ccc(C(=C2C3CCCC2CCC3)c2ccc(O)cc2)cc1)CCCC(F)(F)C(F)(F)F (stereo not shown) | MCF7 inducible wild-type ERα | cell proliferation, inhibitor, MTT |  | 5 days |  | IC50 | 3.8 nM |
| C=CC(=O)Nc1cc(-n2c(=O)ccc3cnc4ccc(-c5cn[nH]c5)cc4c32)ccc1C | OCI-AML-3 |  |  | 48 h |  | concentration inducing apoptosis | 5 µM |
| CCc1nc(N)nc(N)c1C#CC(C)c1cc2c(c(-c3ccc(CC(=O)O)cc3)c1)OCO2 (stereo not shown) | HepG2 | cytotoxicity, Alamar Blue |  | four hours |  | IC50 | > 200 µg/mL |

A few entries again:
| Compound | tested on | assay | test system | setting | how to read | measurement | value |
| --- | --- | --- | --- | --- | --- | --- | --- |
| COCCCn1nc(-c2ccc(CC(=O)Nc3cccc(F)c3)cc2)c2c(N)ncnc21 | A549 | cell viability |  |  |  | EC50 | > 20000 nM |
| O=C(C=Cc1ccc(C(F)(F)F)cc1)Nc1ccc(Oc2ccccc2)c(S(=O)(=O)O)c1 | HEK293 AP-1-luc | AP-1 reporter gene, inhibitor |  | 24 h, added: 20% serum |  | IC50 | 640 nM |
